Measurements of several laboratories.
Compare with care: the assays were run in different laboratories.
Target: MAP/microtubule affinity-regulating kinase 4 (MARK4, Homo sapiens, UniProt Q96L34)

SMILES	assay	test system	conditions	scale	endpoint	result
COc1cc(Nc2nc(C)cc(-c3cnn4nc(OC)ccc34)n2)cc(C(F)(F)F)c1	inhibitor	–	1 µM	baseline: control	remaining activity	100%
CNC1C[S+]2CC[S+]3CC[S+](C1)[Ru-4]321([N]=C=S)[n]2c3ccc(OC)cc3c3c4c(c5cc(F)c[n+]1c5c32)C(=O)NC4=O (centres unmarked)	KinomeScan	–	0.1 µM	baseline: untreated	remaining binding	71%
Cc1cnc2nc1Nc1cccc(c1)COC/C=C/COCc1cc(ccc1OCCN1CCOCC1)N2	cell-free assay	–	0.1 µM	–	remaining signal	100%
O=C(Cc1ccc(OCc2ccccc2)cc1)NC1(C(=O)O)CCN(C(=O)c2ccc(-c3cccc(Cl)c3)cc2)CC1	enzyme activity, inhibitor	–	10 µM	–	activity vs control	92%
C=CC(=O)Nc1cccc(-c2cnc3[nH]cc(C(=O)NC(C)(C)C)c3n2)c1	enzyme activity, inhibitor	–	0.1 µM	–	inhibition	54%
CN1CCN(Cc2ccc(-c3ccc(CO[C@H]4CCC[C@@H]4NC(=O)c4cc(-c5cnn(C)c5)cnc4N)cc3)cc2)CC1	enzyme activity, inhibitor	–	0.1 µM	–	inhibition	7%
CCN1CCN(Cc2ccc(C(=O)Nc3ccc(C)c(NCc4cnc5[nH]ccc5c4OC)c3)cc2C(F)(F)F)CC1	binding, competition with immobilised ligand	–	1 µM	–	remaining binding	59%
CNC(=O)C[C@H](Cc1ccc(C#N)cc1)NC(=O)c1cc(-c2ccc(CN[C@H](C)c3ccc(C)cc3)o2)ccc1Cl	enzyme activity, inhibitor	–	1 µM	–	activity vs control	88%
NC(=O)[C@@H](O)C[C@H]1CCc2sc3ncnc(O[C@H]4CC[C@H](N5CCOCC5)CC4)c3c21	enzyme activity, inhibitor	–	10 µM	–	inhibition	7%
CNC(=O)C1CCN(c2cc(C)c(F)cc2NC(=O)c2ccc(-c3cc(O)ccc3C)c(C)c2)CC1	binding, competition with immobilised ligand	–	1 µM	–	remaining binding	96%
CC(C)=CC1OC(C)(C)C2C=C3C(=O)C(Cl)=CC(O)C3C3C(O)C4OC4C(=O)C132 (centres unmarked)	cell-free assay, competition with immobilised ligand	–	10 µM	–	remaining binding	79%
C=CC(=O)N1Cc2nc(-c3cc(-c4cc(Cl)cnc4Cl)c(F)cc3F)n(-c3ccncn3)c2C1	cell-free assay, inhibitor	–	1 µM	–	inhibition	9.9%
Cc1cccc(O[C@H]2CCC[C@@H](C(C)CNCc3ccncc3)C2)c1 (relative stereo)	kinase activity, kinome panel screening	–	10 µM	–	inhibition	1%
CS(=O)(=O)Nc1cccc(-c2csc3cnc(Nc4ccc(N5CCN(CCCCCOc6cccc7c6C(=O)N(C6CCC(=O)NC6=O)C7=O)CC5)cc4)nc23)c1 (centres unmarked)	probe labelling, inhibitor, KiNativ chemoproteomics	MOLT-4	1 µM	–	inhibition	-3.48%
